Published values of several laboratories.
Parts stem from different laboratories: compare values within a part only. Changes are numbered by the printed parent chain.

Set 1
Target: CCNB1, cyclin fold, Cln2 fusion (human)
Method: yeast growth competition, sequencing
Medium: yeast
Notes: strong parent motif
Baseline: not given
Direction: higher = stronger binding
Starting sequence: viral docking peptide; KGVKRKLFAEDSS; partner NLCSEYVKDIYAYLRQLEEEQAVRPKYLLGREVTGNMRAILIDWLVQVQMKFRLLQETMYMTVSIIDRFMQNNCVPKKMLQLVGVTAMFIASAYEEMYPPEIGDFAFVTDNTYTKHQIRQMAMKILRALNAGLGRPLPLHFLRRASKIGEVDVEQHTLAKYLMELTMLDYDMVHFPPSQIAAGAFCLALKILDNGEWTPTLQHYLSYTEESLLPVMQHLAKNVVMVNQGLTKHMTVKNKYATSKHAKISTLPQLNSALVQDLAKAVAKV
| Change | normalised enrichment score |
| --- | --- |
| KGVKRKLFREDSS [A9R] | 1.77 |
| KGVNRKLFAEDSS [K4N] | 2.42 |
| KGVKLKLFAEDSS [R5L] | 0.872 |
| KGVKRKLKAEDSS [F8K] | 0.197 |

Set 2
Target: HLA class I histocompatibility antigen, A alpha chain, allele A*80:01 (Homo sapiens, UniProt P04439)
Read-out: peptide-MHC binding
Form: peptide
Tested at: concentration not given
| Sequence | binding |
| --- | --- |
| GRGPIRFVL | inactive |
| ITYLMNRFK | inactive |
| FHARFVQAL | inactive |
| ATEDPSSGY | inactive |

Set 3
Target: UBE2D3 UBC core domain (UniProt P61077)
Chain of UniProt P61077 (whole entry, looked up): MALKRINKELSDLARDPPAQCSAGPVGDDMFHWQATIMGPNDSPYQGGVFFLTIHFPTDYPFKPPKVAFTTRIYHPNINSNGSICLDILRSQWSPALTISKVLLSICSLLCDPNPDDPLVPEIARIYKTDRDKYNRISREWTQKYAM
Method: yeast two-hybrid
Medium: yeast
Notes: mostly zero background
Baseline: not given
Direction: higher = stronger interaction
B1: SYTL4 RING domain (UniProt Q96C24); chain RGSQHYSDRTCARCQESLGRLSPKTNTCRGCNHLVCRDCRIQESNGTWRCKVCAKEIELKKAT
B2: MAP3K1 RING domain (UniProt Q13233); chain NSIKDEEEQMCPICLLGMLDEESLTVCEDGCRNKLHHHCMSIWAEECRRNREPLICPLCRSKWRSHDFYS
| Sequence | lacZ reporter activity |
| --- | --- |
| KETIKKTTKPCPRCHVPVEKNGGCMHMKCPQPQCRLEWCWNCGCEWNRVCMG (PRKN RING domain (UniProt O60260)) | 0 |
| B1 (SYTL4 RING domain) | 0 |
| GSRLQEINDVCAICYHEFTTSARITPCNHYFHALCLRKWLYIQDTCPMCHQKVYIEDDIK (RNF139 RING domain (UniProt Q8WU17)) | 0 |
| B2 (MAP3K1 RING domain) | 13600 |

Set 4
Target: ABI1, truncated, D143A, DHFR fusion (Arabidopsis thaliana, UniProt P49597)
Method: DHFR PCA, dose-response
Medium: yeast
Notes: Hill fit, mean, not affinity
Together with: (+)-ABA, dose series
Direction: lower = more sensitive
Starting sequence: PYL1, truncated, DHFR fusion (Arabidopsis thaliana, UniProt Q8VZS8); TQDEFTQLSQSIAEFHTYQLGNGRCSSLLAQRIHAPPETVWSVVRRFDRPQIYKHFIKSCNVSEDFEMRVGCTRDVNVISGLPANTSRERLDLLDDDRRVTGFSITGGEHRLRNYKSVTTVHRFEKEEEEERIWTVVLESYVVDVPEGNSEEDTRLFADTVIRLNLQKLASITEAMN
| Change | ABA EC50 [µM] |
| --- | --- |
| L82S | 298 |
| E129V | 3.86 |
| N165Q | 420 |
| H34N | 4.19 |
| E131A | 2.82 |
| L94S | 137 |
| S27N | 4.71 |
| D75R | 2.34 |

Excerpt of the above (set 4):
| Change | ABA EC50 [µM] |
| --- | --- |
| E131A | 2.82 |
| D75R | 2.34 |
| L82S | 298 |
